Experimental data of several laboratories.
Numbered parts are unrelated; each lists some results of a single study.
Chain of UniProt P11802 (whole entry, looked up): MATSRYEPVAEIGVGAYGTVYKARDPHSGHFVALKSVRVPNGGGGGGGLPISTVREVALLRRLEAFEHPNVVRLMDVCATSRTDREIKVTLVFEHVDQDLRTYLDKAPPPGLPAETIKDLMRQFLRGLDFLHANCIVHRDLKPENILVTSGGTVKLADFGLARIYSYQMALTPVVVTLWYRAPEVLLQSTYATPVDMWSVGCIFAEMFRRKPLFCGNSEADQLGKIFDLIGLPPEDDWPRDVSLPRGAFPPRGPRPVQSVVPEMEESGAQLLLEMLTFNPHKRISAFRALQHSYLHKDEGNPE
Chain of UniProt P53355 (whole entry, looked up): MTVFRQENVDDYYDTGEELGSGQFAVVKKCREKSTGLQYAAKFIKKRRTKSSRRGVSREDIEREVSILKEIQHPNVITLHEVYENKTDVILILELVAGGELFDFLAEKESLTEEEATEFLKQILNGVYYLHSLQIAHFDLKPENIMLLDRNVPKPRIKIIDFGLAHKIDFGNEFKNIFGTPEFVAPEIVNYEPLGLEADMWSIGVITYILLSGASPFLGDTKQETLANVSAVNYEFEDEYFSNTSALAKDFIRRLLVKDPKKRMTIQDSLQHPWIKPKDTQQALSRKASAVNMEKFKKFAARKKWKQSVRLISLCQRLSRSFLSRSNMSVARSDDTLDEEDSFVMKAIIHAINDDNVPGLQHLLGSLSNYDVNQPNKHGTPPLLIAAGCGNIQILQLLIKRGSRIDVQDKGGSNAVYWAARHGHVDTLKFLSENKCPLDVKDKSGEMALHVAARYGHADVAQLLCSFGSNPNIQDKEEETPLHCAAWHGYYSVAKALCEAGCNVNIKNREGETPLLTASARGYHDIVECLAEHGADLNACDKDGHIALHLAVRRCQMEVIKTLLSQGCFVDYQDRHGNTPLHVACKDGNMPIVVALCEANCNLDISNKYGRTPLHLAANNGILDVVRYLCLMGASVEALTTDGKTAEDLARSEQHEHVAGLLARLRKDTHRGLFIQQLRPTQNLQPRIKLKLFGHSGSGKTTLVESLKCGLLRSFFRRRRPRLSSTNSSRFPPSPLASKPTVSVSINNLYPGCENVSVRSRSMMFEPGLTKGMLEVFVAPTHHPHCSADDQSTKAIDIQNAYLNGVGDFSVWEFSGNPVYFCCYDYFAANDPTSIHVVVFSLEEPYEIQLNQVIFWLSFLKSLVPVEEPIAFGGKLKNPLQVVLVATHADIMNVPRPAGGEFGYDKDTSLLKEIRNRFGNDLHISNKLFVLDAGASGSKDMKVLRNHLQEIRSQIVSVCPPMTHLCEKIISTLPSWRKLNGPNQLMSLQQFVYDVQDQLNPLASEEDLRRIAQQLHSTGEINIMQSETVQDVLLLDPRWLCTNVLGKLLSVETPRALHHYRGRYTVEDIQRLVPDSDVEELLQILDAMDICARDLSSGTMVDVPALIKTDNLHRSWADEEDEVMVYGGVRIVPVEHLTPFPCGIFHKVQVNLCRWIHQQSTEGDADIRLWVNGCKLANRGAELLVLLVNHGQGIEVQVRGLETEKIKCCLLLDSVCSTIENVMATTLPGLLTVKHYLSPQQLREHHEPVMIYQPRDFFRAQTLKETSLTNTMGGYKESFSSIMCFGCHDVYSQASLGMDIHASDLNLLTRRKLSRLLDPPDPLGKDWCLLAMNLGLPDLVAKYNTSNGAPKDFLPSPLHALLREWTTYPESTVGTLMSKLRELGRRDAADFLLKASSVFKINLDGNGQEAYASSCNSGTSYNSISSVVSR
Chain of UniProt O14920 (whole entry, looked up): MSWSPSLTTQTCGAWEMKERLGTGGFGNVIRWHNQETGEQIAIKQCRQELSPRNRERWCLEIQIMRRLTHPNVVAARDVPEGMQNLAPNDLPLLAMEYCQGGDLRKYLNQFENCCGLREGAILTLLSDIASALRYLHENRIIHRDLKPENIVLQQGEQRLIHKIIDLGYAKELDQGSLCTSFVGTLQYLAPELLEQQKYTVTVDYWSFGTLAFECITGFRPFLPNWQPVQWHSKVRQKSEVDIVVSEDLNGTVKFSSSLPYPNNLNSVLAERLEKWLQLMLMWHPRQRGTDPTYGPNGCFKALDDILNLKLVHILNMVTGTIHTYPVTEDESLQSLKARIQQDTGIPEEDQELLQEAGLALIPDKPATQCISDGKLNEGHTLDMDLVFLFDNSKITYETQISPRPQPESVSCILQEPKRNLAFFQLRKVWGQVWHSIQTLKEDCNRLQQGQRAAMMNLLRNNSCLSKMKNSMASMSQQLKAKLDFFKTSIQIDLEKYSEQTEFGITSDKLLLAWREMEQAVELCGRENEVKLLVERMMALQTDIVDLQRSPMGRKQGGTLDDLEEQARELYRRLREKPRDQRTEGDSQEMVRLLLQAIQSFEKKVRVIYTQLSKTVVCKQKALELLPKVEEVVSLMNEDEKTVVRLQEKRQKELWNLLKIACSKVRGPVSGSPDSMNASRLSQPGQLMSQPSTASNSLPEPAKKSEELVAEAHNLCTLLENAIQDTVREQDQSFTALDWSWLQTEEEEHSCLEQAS
Chain of UniProt Q5S007 (whole entry, unmodified, looked up): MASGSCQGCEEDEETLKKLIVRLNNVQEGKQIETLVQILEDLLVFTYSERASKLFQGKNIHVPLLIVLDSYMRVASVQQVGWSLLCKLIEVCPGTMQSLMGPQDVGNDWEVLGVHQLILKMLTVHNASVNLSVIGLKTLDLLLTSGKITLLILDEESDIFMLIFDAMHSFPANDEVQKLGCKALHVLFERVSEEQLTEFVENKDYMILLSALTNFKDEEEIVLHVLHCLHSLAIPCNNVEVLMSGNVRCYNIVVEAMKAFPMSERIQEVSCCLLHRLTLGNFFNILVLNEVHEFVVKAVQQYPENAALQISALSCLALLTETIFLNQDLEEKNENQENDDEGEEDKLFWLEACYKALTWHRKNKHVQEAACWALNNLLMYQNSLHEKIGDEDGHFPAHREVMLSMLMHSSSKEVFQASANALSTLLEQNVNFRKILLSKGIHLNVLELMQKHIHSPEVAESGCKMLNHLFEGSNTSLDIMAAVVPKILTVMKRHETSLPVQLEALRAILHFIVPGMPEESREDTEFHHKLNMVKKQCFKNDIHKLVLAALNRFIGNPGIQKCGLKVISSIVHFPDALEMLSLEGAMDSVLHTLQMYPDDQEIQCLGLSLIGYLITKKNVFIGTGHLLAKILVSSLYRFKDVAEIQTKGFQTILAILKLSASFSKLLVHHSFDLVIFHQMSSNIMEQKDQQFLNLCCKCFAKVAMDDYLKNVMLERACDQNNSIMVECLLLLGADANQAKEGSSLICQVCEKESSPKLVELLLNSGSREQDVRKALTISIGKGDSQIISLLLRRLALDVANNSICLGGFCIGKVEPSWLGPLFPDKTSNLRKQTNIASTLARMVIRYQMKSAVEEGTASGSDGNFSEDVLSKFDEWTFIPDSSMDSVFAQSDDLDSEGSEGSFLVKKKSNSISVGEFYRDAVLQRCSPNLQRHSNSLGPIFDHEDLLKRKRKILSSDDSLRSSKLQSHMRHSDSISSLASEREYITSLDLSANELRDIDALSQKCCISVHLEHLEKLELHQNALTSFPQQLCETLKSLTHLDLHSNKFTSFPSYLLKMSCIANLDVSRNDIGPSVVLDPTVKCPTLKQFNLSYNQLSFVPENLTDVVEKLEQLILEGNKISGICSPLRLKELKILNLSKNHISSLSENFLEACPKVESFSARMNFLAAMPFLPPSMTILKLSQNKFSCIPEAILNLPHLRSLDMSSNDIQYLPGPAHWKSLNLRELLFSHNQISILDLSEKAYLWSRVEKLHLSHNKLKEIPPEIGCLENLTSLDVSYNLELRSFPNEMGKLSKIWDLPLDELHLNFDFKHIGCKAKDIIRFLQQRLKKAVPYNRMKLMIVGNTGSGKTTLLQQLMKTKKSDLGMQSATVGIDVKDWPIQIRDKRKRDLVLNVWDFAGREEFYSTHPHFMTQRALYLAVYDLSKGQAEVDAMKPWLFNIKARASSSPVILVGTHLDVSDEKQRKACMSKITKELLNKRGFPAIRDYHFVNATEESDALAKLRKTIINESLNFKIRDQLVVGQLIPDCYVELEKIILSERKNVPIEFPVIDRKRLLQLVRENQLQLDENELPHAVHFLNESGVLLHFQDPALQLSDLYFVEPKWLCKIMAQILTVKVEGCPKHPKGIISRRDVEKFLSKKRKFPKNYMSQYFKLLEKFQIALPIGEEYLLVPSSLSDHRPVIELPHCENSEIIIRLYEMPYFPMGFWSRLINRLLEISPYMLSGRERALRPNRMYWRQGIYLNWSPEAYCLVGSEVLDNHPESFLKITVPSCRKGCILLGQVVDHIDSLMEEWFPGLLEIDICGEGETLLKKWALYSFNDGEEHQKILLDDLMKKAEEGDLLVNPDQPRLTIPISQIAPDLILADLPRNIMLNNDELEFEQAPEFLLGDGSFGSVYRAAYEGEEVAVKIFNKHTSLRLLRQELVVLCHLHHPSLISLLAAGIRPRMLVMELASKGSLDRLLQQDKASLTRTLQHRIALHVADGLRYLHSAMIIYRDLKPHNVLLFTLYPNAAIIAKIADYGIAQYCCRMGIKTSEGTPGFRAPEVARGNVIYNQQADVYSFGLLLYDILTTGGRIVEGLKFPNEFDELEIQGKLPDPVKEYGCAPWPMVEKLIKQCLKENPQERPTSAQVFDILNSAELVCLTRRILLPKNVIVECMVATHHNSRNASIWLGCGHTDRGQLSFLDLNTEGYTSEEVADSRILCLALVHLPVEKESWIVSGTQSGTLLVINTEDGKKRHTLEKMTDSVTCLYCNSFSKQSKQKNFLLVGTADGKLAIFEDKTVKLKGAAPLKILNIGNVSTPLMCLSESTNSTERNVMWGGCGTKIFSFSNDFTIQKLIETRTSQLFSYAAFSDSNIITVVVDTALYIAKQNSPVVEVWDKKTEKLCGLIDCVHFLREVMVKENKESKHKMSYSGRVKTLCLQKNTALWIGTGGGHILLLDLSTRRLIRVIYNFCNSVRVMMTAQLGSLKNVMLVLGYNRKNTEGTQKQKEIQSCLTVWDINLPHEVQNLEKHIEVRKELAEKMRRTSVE

Series 1
Target: Interferon regulatory factor 5, full length, phosphomimetic (IRF5, Homo sapiens, UniProt Q13568-2, residues 1-514, K96S/S451D/S453D/S456D/S462D)
Technique: protein-binding microarray
Molecule type: double-stranded DNA, one strand shown
Sample: in vitro
Tested at: 250 nM
Setting: 60-bp whole probe
Added: salmon DNA 0.4 mg/ml
Relative to: random background probes
Direction: higher = stronger binding
Constant ends, left off below: GCCTAGCAC … GTCTTGATTCGCTTGACGCTGCTG
| Oligonucleotide | log fluorescence [z-score] |
| --- | --- |
| TTAGGTATCCTTGTCCTTTAGTGCTAG | -0.164 |
| TTAGGACAGGGACTGGGTTAGTGCTAG | -0.402 |
| ATAGGACTGGACACTGGGTTAGTGCTA | -0.422 |
| GACGGTATCCTACTGCTGCCGTGCTAG | -0.259 |
| ATAGAACTGAGTTTCGATTAGTGCTAG | 9.09 |
| GGCAAAAACATGAACAGACAGTGCTAG | -0.269 |
| TCAGCTTTCTTTACCACACTGTGCTAG | 1.17 |
| TCAAGCCTAAGGTTTAGGACTGTGCTA | -0.426 |

Series 2
Target: RNA binding protein fox-1 homolog 2, RRM domain, GST-SBP tag (RBFOX2, Homo sapiens, UniProt O43251-10, residues 100-194)
Technique: RNA Bind-n-Seq
Molecule type: RNA
Sample: in vitro
Tested at: 365 nM
Setting: natural RNA segment, single round, ends assumed
Relative to: no-protein control
Direction: higher = stronger binding
Construct (chain): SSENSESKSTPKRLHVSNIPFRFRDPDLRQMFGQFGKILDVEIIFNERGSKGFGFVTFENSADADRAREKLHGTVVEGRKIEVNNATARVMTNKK
| Oligonucleotide | RBNS enrichment (R) |
| --- | --- |
| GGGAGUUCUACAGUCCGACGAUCUUUGAAGGAUUUUUCUUUCUGAACUUUUUAAAUUUUUAUAUUUUCCUGCCAUACAUCUACAAAGUGGGUUUUGAGUGAGGGCAGGUGGCCCAGUGGCUUUGGGUGGCGACUGGAAUUCUCGGGUGCCAA | 1.37 |
| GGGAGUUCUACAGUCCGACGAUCGUUCCACCUGGAUCCAGUUGCAAAGUUUGGAAAAGUUCUCUUAGUUUUACUGGAUUCUCAGGGAGCCCUCUGUGGCCUUUUCCUUUAUUUUGAGUGCUGUUUCCUUUUUAUGGAAUUCUCGGGUGCCAA | 0.488 |
| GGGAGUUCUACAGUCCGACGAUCCUACAUAGACUCCUGCCUCCAGGUGCAGGAACACACCUUCCUAAAGUGCUGUGGGAGGCCAAACUGGGGAGCUGUGCUAAGUCAAUGUAGAAAUUCUCGAGUAUUUUGGUUGGAAUUCUCGGGUGCCAA | 0.622 |
| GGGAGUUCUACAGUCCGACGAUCUGGCAACACACUUCACUGAACCCACUUGCUUCCAAAACGAUGCCAGCCCGAGGCACUGCUACGCCAGCAGCUGCCACAUGGGAUGGUGGCUCAGGCGCUCCCUCCAGGAUUGGAAUUCUCGGGUGCCAA | 0.258 |
| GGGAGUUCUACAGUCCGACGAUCUUCAUUGUGUUUUCUUCGUGGAUUGUUUUUUCUGCGGGUCAUAUUCAUACCUUCUGAUGAAGUUGUACAACACCAGCAACAUUAUAAUGGCCCUGUAGCUCUGAAUGCUAUGGAAUUCUCGGGUGCCAA | 0.455 |
| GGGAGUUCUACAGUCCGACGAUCUCAAAGUUUAAGUUAAUGUUAUAUAUUAUGUAUAAAUAUAUAUAUUCAUAAUGAGAUAUAUGUAAUGGAUAGUACAAAGUUUGGAGACUCAACAAAUGCUCUAACCUUCUUGGAAUUCUCGGGUGCCAA | 0.697 |
| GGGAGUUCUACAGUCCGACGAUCCUCUACUCUUGCUCAAGAAGUAAUACGACAAUCAGAAUACAAACCAGUAAGGCAACACGAAUAAACUAAGAAAAAGGUAAGAACUGUCUCAAAAACGAAAGCACACCACCUGGAAUUCUCGGGUGCCAA | 0.514 |
| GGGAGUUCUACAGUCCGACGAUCUCUGACACUAAAACACCUCAGCUGCCUCCCCAGCUCUAUCCCAACCUCUCCCAACUAUAAAACUAGGUGCUGCAGCCCCUGGGACCAGGCACCCCCAGAAUGACCUGGCCUGGAAUUCUCGGGUGCCAA | 0.886 |

Series 3
SMILES: CN(C)S(=O)(=O)c1ccc2c(c1)/C(=C/c1cc3c([nH]1)CCCC3)C(=O)N2
Effect on: enzyme activity
Mode: inhibitor
Tested at: 0.5 µM
Relative to: control
| target | remaining activity [%] |
| --- | --- |
| Tyrosine-protein kinase Lyn, isoform B (LYN, Homo sapiens, UniProt P07948) | 41.3 |
| DAPK1 (Homo sapiens, UniProt P53355) | 102 |
| Cyclin-dependent kinase 4, with cyclin D1 (CDK4, Homo sapiens, UniProt P11802) | 107 |
| MAP3K3 (Homo sapiens, UniProt Q99759) | 48.7 |
| MAPK9 (Homo sapiens, UniProt P45984) | 104 |
| IKBKB (Homo sapiens, UniProt O14920) | 107 |

Series 4
Structure (SMILES): CCC(=O)N[C@H]1CC[C@@H](C(=O)N(C)c2ccc(-c3nc4ccccc4o3)cc2)C1
Effect on: cell-free assay
Technique: competition with immobilised ligand
Tested at: 1 µM
| target | remaining binding [%] |
| --- | --- |
| ERBB3 (Homo sapiens, UniProt P21860) | 100 |
| DCLK3 (Homo sapiens, UniProt Q9C098) | 87 |
| PIK3C2B (Homo sapiens, UniProt O00750) | 93 |
| LRRK2 (Homo sapiens, UniProt Q5S007, G2019S) | 100 |

Excerpt of the above (series 2):
| Oligonucleotide | RBNS enrichment (R) |
| --- | --- |
| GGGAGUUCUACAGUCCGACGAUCCUACAUAGACUCCUGCCUCCAGGUGCAGGAACACACCUUCCUAAAGUGCUGUGGGAGGCCAAACUGGGGAGCUGUGCUAAGUCAAUGUAGAAAUUCUCGAGUAUUUUGGUUGGAAUUCUCGGGUGCCAA | 0.622 |
| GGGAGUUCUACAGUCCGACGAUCUCAAAGUUUAAGUUAAUGUUAUAUAUUAUGUAUAAAUAUAUAUAUUCAUAAUGAGAUAUAUGUAAUGGAUAGUACAAAGUUUGGAGACUCAACAAAUGCUCUAACCUUCUUGGAAUUCUCGGGUGCCAA | 0.697 |
